Results of several laboratories.
Each numbered part is a random draw from the data of one study; scales do not carry over between parts. “And” joins repeats or separate records; there may be more than shown. Substitutions count along the parent as printed.
UniProt Q9NWZ3, sequence (whole entry, looked up): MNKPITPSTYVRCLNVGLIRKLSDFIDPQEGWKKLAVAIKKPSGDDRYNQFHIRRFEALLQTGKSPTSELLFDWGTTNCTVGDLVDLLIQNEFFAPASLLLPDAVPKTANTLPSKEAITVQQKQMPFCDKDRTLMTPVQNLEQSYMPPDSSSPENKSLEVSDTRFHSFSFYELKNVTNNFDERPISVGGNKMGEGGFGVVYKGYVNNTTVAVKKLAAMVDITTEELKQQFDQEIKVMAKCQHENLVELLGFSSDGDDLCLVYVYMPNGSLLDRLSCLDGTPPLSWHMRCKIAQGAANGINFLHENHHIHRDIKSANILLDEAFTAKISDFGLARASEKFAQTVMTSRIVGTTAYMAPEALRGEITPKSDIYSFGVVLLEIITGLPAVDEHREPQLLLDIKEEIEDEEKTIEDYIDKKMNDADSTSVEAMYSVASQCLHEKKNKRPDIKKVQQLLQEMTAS

Series 1
Target: Max dimerization protein 1, bHLH-zipper, MAX partner unstated (MXD1, Homo sapiens, UniProt Q05195, residues 56-136)
Method: protein-binding microarray
Form: double-stranded DNA, one strand shown
Matrix: in vitro
Tested at: not given
Setting: k-mer, scored over probes, only values ≥0.25
Direction: higher = stronger binding
Quantity: E-score
Construct (chain): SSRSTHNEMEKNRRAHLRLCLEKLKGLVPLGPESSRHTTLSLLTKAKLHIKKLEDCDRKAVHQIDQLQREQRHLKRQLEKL
AGGAGGGG: 0.334
ACATATGG: 0.348
AAGCACGT: 0.421
CACGCTCC: 0.318
ACCATATG: 0.376
CGCCCCAC: 0.302
ACGTGAAT: 0.268
AATAGCAT: 0.257

Series 2
Target: CCND1, cyclin fold, Cln2 fusion (human)
Method: yeast growth competition, sequencing
Matrix: yeast
Setting: strong parent motif
Reference: not given
Direction: higher = stronger binding
Quantity: normalised enrichment score
Parent: E2F1 docking peptide (human); PPVKRRLDFETDH; partner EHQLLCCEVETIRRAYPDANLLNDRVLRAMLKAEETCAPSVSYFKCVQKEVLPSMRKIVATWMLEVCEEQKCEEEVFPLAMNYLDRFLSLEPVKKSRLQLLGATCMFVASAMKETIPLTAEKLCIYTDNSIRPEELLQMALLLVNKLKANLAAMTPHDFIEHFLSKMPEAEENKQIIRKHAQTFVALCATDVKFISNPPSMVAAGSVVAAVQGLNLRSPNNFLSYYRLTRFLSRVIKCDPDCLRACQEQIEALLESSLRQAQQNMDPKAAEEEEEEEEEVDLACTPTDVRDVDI
PPVKPRLDFETDH [R5P]: 0.898
PPVKRRLDFETPH [D12P]: 3.44
PPVKRRLRFETDH [D8R]: 0.735
PQVKRRLDFETDH [P2Q]: 2.03
PPVKRRLDFATDH [E10A]: 2.44
PPVKRSLDFETDH [R6S]: 1.13
PPVKRKLDFETDH [R6K]: 3.07
PPVKRRQDFETDH [L7Q]: 0.0661

Further values, each from its own experiment
Cn1cc(/C=C2\C(=O)Nc3ccc(S(N)(=O)=O)cc32)c2ccccc21 — remaining activity (IRAK4 (Homo sapiens, UniProt Q9NWZ3); enzyme activity, inhibitor; 0.5 µM; reference: control): 2.98%
c1ccc(N2CCN(Cc3nc4ccccc4[nH]3)CC2)nc1 — viability (normal organoid sample D; CellTiter-Glo; human, normal-adjacent epithelium; 1 µM; reference: DMSO): 101% and 105%

Excerpt of the above (series 2):
PPVKRRLRFETDH [D8R]: 0.735
PPVKRRQDFETDH [L7Q]: 0.0661
PPVKRSLDFETDH [R6S]: 1.13
